Measurements gathered from unrelated publications.
Every numbered part comes from another study and shows a few of its results, in no order. Changes are numbered by the printed parent chain.
Sequence of UniProt P50750 (whole entry, looked up): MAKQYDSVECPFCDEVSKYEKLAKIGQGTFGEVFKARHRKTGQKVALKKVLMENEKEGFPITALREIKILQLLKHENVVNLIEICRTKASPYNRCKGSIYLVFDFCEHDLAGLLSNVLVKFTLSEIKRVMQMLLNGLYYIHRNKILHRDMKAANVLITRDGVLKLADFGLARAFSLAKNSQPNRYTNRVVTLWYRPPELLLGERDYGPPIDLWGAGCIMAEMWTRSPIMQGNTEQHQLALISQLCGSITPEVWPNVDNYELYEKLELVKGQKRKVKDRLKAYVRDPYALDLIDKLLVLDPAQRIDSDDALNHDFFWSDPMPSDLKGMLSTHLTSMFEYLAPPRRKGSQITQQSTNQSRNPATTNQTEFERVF
Sequence of UniProt Q13555 (whole entry, looked up): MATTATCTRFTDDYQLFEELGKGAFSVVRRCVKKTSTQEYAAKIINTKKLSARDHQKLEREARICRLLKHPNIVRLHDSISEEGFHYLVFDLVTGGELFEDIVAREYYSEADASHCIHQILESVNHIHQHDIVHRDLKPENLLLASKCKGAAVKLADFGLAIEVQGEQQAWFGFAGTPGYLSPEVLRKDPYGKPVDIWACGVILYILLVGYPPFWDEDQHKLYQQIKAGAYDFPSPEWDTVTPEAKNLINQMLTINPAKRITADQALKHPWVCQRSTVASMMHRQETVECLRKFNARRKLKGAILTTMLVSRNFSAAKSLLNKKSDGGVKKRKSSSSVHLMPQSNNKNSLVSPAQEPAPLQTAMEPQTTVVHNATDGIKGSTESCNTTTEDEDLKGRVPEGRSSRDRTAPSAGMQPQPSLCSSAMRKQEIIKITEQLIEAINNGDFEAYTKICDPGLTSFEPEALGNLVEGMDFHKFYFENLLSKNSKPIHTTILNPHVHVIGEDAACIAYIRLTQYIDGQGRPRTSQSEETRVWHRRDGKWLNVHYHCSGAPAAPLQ
Sequence of UniProt P42336 (whole entry, unmodified, looked up): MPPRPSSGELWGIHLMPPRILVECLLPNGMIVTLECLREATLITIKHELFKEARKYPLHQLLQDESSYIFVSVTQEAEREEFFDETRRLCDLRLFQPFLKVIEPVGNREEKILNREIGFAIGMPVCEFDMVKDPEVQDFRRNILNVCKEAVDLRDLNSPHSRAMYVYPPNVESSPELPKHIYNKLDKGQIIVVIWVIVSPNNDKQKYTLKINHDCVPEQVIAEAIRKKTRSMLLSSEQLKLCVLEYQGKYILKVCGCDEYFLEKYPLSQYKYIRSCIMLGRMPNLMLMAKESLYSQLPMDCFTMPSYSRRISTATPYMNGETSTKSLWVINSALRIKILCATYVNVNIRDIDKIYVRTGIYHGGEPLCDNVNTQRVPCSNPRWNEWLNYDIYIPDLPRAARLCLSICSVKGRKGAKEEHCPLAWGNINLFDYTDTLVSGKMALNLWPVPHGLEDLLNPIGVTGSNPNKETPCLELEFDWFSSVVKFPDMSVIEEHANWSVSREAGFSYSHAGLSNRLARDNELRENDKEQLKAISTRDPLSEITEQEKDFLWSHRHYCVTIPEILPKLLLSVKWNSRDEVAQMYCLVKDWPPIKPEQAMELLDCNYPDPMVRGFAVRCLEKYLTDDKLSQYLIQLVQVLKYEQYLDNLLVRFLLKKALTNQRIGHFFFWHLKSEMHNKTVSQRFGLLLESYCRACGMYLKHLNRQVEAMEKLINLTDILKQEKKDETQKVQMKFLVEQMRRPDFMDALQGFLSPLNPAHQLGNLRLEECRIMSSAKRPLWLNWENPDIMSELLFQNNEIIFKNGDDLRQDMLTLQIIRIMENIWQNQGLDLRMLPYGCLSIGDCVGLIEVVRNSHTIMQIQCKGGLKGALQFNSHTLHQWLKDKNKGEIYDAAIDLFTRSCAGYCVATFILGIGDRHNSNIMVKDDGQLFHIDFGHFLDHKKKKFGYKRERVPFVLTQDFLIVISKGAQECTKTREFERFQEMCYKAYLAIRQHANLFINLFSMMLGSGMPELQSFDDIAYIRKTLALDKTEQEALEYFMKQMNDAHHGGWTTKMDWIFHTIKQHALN
Sequence of UniProt P35626 (whole entry, looked up): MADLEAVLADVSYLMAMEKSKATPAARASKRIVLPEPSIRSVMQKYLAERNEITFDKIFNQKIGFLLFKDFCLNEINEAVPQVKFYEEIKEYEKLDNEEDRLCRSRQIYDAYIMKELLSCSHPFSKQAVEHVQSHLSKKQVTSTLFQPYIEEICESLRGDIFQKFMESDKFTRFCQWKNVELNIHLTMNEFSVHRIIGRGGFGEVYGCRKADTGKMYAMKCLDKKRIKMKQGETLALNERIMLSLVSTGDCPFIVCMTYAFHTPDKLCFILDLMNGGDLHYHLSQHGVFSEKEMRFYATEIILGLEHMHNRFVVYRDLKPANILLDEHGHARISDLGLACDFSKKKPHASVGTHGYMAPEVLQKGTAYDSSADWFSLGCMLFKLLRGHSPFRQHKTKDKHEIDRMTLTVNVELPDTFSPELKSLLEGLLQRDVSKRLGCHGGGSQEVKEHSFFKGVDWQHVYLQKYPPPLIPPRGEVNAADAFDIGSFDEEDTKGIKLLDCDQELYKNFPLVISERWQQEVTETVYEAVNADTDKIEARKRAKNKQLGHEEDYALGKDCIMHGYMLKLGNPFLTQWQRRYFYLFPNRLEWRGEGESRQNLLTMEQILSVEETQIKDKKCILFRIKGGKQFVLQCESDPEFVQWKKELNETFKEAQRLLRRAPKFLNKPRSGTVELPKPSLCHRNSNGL
Sequence of UniProt Q06187 (whole entry, looked up): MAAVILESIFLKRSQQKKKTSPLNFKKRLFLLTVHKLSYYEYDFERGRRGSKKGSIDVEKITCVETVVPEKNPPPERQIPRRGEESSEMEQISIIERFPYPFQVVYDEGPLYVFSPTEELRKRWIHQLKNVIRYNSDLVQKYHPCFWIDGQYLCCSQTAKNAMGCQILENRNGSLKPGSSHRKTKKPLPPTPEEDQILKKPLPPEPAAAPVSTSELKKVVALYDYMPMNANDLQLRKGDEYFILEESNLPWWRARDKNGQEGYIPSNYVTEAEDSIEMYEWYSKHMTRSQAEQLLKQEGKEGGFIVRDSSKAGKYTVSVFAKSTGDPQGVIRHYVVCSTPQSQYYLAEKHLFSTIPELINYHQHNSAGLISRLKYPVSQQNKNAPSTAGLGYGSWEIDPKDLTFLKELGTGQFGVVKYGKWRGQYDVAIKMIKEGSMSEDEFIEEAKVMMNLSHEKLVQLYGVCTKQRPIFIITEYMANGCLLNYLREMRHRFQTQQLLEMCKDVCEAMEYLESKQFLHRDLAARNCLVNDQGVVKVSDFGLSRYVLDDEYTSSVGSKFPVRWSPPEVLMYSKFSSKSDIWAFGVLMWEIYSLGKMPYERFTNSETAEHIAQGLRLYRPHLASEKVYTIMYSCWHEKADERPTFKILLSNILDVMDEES
Sequence of UniProt O95747 (whole entry, looked up): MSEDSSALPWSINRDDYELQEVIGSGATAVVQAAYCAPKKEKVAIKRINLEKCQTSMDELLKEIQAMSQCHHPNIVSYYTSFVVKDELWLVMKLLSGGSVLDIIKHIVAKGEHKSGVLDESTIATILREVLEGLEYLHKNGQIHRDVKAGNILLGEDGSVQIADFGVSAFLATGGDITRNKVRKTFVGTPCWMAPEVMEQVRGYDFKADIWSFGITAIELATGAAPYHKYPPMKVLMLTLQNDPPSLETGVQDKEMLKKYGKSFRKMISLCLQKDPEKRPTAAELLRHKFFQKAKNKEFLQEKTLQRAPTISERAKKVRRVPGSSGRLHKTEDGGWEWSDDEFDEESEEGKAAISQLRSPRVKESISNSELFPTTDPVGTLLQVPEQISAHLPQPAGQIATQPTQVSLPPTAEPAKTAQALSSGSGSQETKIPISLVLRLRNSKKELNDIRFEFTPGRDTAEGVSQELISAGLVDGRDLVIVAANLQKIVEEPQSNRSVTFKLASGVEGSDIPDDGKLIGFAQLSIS

Sample 1
Target: Tyrosine-protein kinase JAK2 (JAK2, Homo sapiens, UniProt O60674)
Sequence of UniProt O60674 (whole entry, looked up): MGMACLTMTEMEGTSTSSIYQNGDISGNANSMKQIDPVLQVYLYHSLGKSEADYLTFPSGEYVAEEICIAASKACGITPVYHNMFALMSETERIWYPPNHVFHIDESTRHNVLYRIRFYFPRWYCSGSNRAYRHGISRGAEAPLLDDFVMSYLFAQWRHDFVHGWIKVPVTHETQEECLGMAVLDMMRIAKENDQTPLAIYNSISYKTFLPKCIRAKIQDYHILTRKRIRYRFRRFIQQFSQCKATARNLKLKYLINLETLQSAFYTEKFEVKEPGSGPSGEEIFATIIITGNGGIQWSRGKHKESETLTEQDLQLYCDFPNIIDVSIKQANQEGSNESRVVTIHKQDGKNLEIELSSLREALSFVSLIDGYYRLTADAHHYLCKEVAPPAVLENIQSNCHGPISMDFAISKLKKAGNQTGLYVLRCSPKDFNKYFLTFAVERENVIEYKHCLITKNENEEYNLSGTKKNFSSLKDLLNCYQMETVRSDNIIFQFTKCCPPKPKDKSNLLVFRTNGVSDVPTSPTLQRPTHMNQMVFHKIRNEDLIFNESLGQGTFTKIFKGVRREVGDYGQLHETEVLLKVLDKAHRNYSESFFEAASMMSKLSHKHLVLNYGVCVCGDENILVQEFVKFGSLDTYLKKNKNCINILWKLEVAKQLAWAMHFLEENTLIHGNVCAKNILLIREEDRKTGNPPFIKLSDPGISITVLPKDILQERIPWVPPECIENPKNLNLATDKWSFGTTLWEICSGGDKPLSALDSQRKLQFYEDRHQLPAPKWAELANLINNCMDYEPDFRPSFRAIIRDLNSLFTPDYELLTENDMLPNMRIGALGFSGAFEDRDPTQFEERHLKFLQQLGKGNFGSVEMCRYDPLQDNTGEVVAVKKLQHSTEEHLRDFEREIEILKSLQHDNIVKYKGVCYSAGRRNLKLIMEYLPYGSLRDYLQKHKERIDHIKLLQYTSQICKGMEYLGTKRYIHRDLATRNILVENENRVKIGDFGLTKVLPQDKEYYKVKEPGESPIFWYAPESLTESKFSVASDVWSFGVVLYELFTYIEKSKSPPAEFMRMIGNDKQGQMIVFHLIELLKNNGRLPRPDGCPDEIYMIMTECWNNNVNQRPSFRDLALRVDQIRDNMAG
Effect on: enzyme activity
Action: inhibitor
Tested at: 0.5 µM
Relative to: control
Measurement: remaining activity
COc1ccc(S(=O)(=O)N(CCO)c2ccccc2CN(C)CC=Cc2ccc(Cl)cc2)cc1: 98.4%
CC#CC(=O)Nc1cc2c(Nc3ccc(F)c(Cl)c3)ncnc2cn1: 97.4%
CCc1[nH]c(-c2ccc(OC)cc2)nc1-c1ccncc1: 96.7%
NC(=O)c1ccc(N(C(N)=O)c2c(F)cccc2F)nc1-c1ccc(F)cc1F: 107%
Nc1nccc(-c2c(-c3ccc(F)cc3)ncn2C2CCNCC2)n1: 99.6%
CSc1nc(-c2ccnc(N[C@@H](C)c3ccccc3)c2)c(-c2ccc(F)cc2)[nH]1 (racemic): 102%

Sample 2
Target: Phosphate system positive regulatory protein PHO4, full length, GST-tagged (PHO4, Saccharomyces cerevisiae, UniProt P07270, residues 1-312)
Method: competition protein-binding microarray
Molecule type: double-stranded DNA, one strand shown
Matrix: in vitro
Tested at: 2 µM
Notes: whole 60-bp probe, lowest competitor level
Together with: Cbf1 competitor, 0.05 µM
Direction: higher = stronger binding
Measurement: fluorescence intensity
Constant ends, left off below: … GTCTTGATTCGCTTGACGCTGCTG
Residues (chain): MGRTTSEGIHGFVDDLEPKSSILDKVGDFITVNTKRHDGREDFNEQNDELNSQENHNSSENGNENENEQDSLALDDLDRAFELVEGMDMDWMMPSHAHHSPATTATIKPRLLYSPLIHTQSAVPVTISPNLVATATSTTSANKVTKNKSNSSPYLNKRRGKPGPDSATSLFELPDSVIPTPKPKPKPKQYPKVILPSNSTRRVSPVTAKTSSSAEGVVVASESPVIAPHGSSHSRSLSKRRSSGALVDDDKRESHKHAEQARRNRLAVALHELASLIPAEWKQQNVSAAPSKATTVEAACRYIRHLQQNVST
GTCTTGTCTCATTGGCCGGTGGGTGTCCCCACTTCA: 4310 a.u.
GTCTTGTCTCATTGTCAAGTGGGTGTCCCCACTTCA: 4430 a.u.
CTTCTGTAAATTTTTCACGTGATGTGAAGCGCCCCG: 11700 a.u.
TAACCTTTAAGCCGTCACAAATAAATAGCCTTGTTG: 3240 a.u.
CAGGTGTGGTTCAACCAAGATTAAGAGAGTATGATA: 4100 a.u.
CGGGGTTAAGTTTGTCACGTTACTTGCTTGCAGCAG: 7840 a.u.
GAACGGATGCCCGAGCCCGTGCCAGCGCCCGAGCCT: 8090 a.u.
CATACCCAACCTTGGTCGGTGGGTGAAGATATTTGT: 4060 a.u.

Sample 3
Structure (SMILES): Cc1c[nH]c2nccc(Oc3c(F)cc(Nc4cc(Cl)nc(N)n4)cc3F)c12
Effect on: cell-free assay
Method: competition with immobilised ligand
Tested at: 0.1 µM
Measurement: remaining binding
PDGFRB (Homo sapiens, UniProt P09619): 83%
CSNK1G2 (Homo sapiens, UniProt P78368): 94%
BMPR2 (Homo sapiens, UniProt Q13873): 95%
Cyclin-dependent kinase 4, with cyclin D1 (CDK4, Homo sapiens, UniProt P11802): 100%
Receptor-type tyrosine-protein kinase FLT3, autoinhibited (FLT3, Homo sapiens, UniProt P36888): 75%
COQ8A (Homo sapiens, UniProt Q8NI60): 100%
PIK3CA (Homo sapiens, UniProt P42336, H1047L): 81%
GRK3 (Homo sapiens, UniProt P35626): 78%
CDK9 (Homo sapiens, UniProt P50750): 78%
OXSR1 (Homo sapiens, UniProt O95747): 92%
FGFR2 (Homo sapiens, UniProt P21802): 100%
CDK17 (Homo sapiens, UniProt Q00537): 81%
MAP3K3 (Homo sapiens, UniProt Q99759): 99%
STK17B (Homo sapiens, UniProt O94768): 100%
CAMK2G (Homo sapiens, UniProt Q13555): 96%
HIPK3 (Homo sapiens, UniProt Q9H422): 92%
MAP2K1 (Homo sapiens, UniProt Q02750): 81%
LRRK2 (Homo sapiens, UniProt Q5S007, G2019S): 100%
NEK5 (Homo sapiens, UniProt Q6P3R8): 97%
BTK (Homo sapiens, UniProt Q06187): 96%

Sample 4
Target: CCNB1, cyclin fold, Cln2 fusion (human)
Method: yeast growth competition, sequencing
Matrix: yeast
Notes: weak parent motif
Relative to: not given
Direction: higher = stronger binding
Measurement: normalised enrichment score
Parent: CDC6 docking peptide (human); TLKGRRLVFDNQL
TLKGNRLVFDNQL [R5N]: -0.141
TLKGRPLVFDNQL [R6P]: -0.673
TLKGRRLVFFNQL [D10F]: 0.284
TLKGRRLVFDNQD [L13D]: -0.392
TLKGRRLVFDMQL [N11M]: 0.133
TLKGRRLVFDNQQ [L13Q]: 0.683
TLKGRRLVFDNQK [L13K]: -0.259
TAKGRRLVFDNQL [L2A]: -0.105

Other studies, line by line
CC(C)(C)c1cnc(CSc2cnc(NC(=O)C3CCN(CCCCCSc4cccc5c4CN(C4CCC(=O)NC4=O)C5=O)CC3)s2)o1 (stereo not shown)
log2 fold change (HuT78; MS proteomics, refers to: P36578 (RPL4); concentration not given, 12 h; relative to: 0 h): 1.08

Repeated from above (sample 4):
TLKGNRLVFDNQL [R5N]: -0.141
TAKGRRLVFDNQL [L2A]: -0.105
TLKGRRLVFDMQL [N11M]: 0.133
TLKGRRLVFDNQK [L13K]: -0.259
